Published values from different studies.
± gives the spread as reported. Values after ≈ are worked out from the molar mass of the structure shown.

With `O=C(C[c-]1cccc1)Oc1ccc(-n2cccc2)cc1.[Fe+2].c1cc[cH-]c1` the E1/2 was 467 mV (cyclic voltammetry; acetonitrile; baseline: Ag/AgCl).
`CC(NC(=O)OC1OC(C(=O)O)C(O)C(O)C1O)c1cc(Cl)ccc1Cn1c(=S)[nH]c(=O)c2[nH]ccc21` (stereo not shown) gave a recovery of > 84% (equilibrium dialysis; male beagle dog plasma; 16 h, pH 7.4).
For `CC(C)c1cnc(-c2cc(Cl)ccc2F)cc1Nc1ccncc1C(=O)NC(CO)CO`, “patients with treatment-related adverse event” read 0% (monotherapy, measured: headache; human patients; oral, dose not given, grade 3, phase I A).
For `Cn1c(=O)oc2ccc(-c3ccc(CC(C#N)NC(=O)C4CNCCCO4)c(F)c3)cc21` (stereo not shown), the acne incidence was 0% (human; oral, 40 mg once daily, treatment-related AE, multiple ascending dose).
The intestine uptake of `CN(C)c1ccc(-c2nc3ccc(OCCCCCN4CCN5CCN(CC4)CC(=O)[O][Al]([18F])[O]C(=O)C5)cc3s2)cc1` is reported as 37.6 ± 6.8 % injected dose/organ (ICR mouse; intravenous, dose not given, 60 min).
`CCC1CC2C(C)=CC3C(=O)CCCC3C=CC(C)=CC2C(=O)O1` (stereo not shown) gave a plasma concentration of 5.2 ± 2.8 ng/mL (ICR mouse male, plasma; intravenous, 2 mg/kg, 60 min).
For `Cc1ccc(OCC(=O)O)cc1`, the AUC(0-last) ratio was 3480 (Sprague-Dawley rat, male, plasma; oral gavage, 10 mg/kg of parent drug; baseline: compound over parent drug).
With `C[Si]1(C)CNC(=O)c2ccccc21` the oral bioavailability was 111 ± 25% (Sprague-Dawley rat, male; 5 mg/kg oral, 1 mg/kg intravenous).
For `Cc1[nH]c(=O)c(CNC(=O)c2cnc(C(F)(F)F)nc2)c2c1CCCC2`, the kinetic solubility was 146 µg/mL (≈ 397 µM) (U-HPLC; 20% DMSO in water).
For `C=C(c1ccc(C(=O)O)c(F)c1)c1cc2c(cc1C)C(C)(C)C=CC2(C)C`, the blood cholesterol was 102 ± 12.5 mg/dL (Sprague-Dawley rat, male; oral, 100 mg/kg, 3 h, sesame oil vehicle).
Under “alpha distribution rate constant”, `N=C(N)NCCC[C@@H]1NC(=O)[C@H](Cc2c[nH]c3ccccc23)NC(=O)[C@@H](CC2CCCCC2)NC(=O)[C@@H]2CCCN2C(=O)[C@@H](NC(=O)CCc2ccccc2)CCCNC1=O` is recorded as 1.28 h⁻¹ (C57BL/6J mouse, spinal cord; subcutaneous, 1 mg/kg, single dose, two-compartment model).
`O=C(Cc1ccc(-c2ccc(OCCN3CCOCC3)cc2)cn1)NCc1ccc(F)cc1` gave a clearance of 39.8 ± 5.33 mL/min/kg (ICR mouse; intravenous, 2 mg/kg).
For `O=C(Nc1ccc(-c2noc(C3CC3)n2)c(Cl)c1)c1cccs1`, the thermodynamic solubility was 130 ± 19 µg/mL (≈ 376 µM) (sodium acetate buffer; 24 h, pH 4.0, room temperature).
`CN(C)C(=O)c1ccnc(N2Cc3cn(Cc4ccc(F)cc4F)nc3C2)n1`: “effect size d” -0.15 (Morris water maze, measured: swimming velocity; wild-type mice; oral, 5 mg/kg daily, from 1 week before test, unit not given; baseline: vehicle).
For `CC(C)[C@H](NC(=O)CNC(=O)[C@H](CCC(N)=O)NC(=O)[C@H](C)N)C(=O)O`, “time with quantifiable concentration” read ≤ 1 h (human; 30 mg/kg).
`COc1cc(C)c(Cc2ccc(O)cc2)cc1[C@@H]1S[C@H](CO)[C@@H](O)[C@H](O)[C@H]1O` has an AUC(0-τ) ratio of 0.147 ± 0.0229 (Japanese T2DM patients, plasma; 1 mg luseogliflozin, day 7, once daily; baseline: compound over luseogliflozin).
`CCCC[C@H](NC(=O)CNC(=O)CNC(=O)CN1CCN(CC(=O)O)CCN(CC(=O)O)CCN(CC(=O)O)CC1)C(=O)N[C@H]1CC(=O)NCCCC[C@@H](C(N)=O)NC(=O)[C@H](Cc2c[nH]c3ccccc23)NC(=O)[C@H](CCCNC(=N)N)NC(=O)[C@@H](Cc2ccccc2)NC(=O)[C@H](Cc2c[nH]cn2)NC1=O` [gallium-67 labelled] — result for “tumour to tissue ratio”: 35.8 (female C57 mice, B16/F1 melanoma; intravenous, 0.037 MBq, 0.5 h; baseline: tumour over muscle).
`COc1ccc2cc(-c3ccc(-c4ccc(C)cn4)nc3)oc2c1` gave a fluorescence lifetime of 1.28 ns (TCSPC; toluene).
With `CC/C=C\C/C=C\C/C=C\C/C=C\C/C=C\CCCCOC(CC)C(=O)O` (stereo not shown) the radioactivity concentration was 36.2 µg equiv/g ([14C] label; male Wistar rat, whole blood; oral, 100 mg/kg, 2 h).
With `CC1(C)[C@@H](O)CC[C@]2(C)[C@H]3C(=O)C=C4[C@@H]5C[C@@](C)(C(=O)O)CC[C@]5(C)CC[C@@]4(C)[C@]3(C)CC[C@@H]12` the renal clearance was 0.072 to 2.16 mL/day/kg (human, both sexes; oral, 12 capsules).
`NC12CNCCNCC(NCc3ccc(CNC(=O)CCCC(=O)NCc4ccc(-c5nncnn5)cc4)cc3)(CNCCNC1)CNCCNC2.[64Cu+2]`: “mean absorbed dose” 0.0325 rad/mCi (OLINDA dosimetry; lungs; 24 h pretargeting interval, with: huA33-TCO pretargeting).
For `O=C([O-])CN1CCN(CC(=O)[O-])CCN(CC(=O)NC[C@H]2CC[C@H](C(=O)N[C@H](Cc3cnc4ccccc4c3)C(=O)NCCCC[C@H](NC(=O)N[C@@H](CCC(=O)O)C(=O)O)C(=O)O)CC2)CCN(CC(=O)[O-])CC1.[64Cu+2]`, the absorbed dose was 0.0307 mGy/MBq (PET/CT, OLINDA/EXM dosimetry; healthy human volunteers, right colon).
Under “radioactive dose excreted in urine”, `Cn1cc(C(=O)N[C@@H]2CCc3cc(C(=O)O)ccc32)cn1` is recorded as 0.177% (human, pooled urine; oral, 20 mg; baseline: dose).
`CCCC[C@H](NC(C)=O)C(=O)N[C@H]1CC(=O)NCCCC[C@@H](C(=O)N[C@@H](C(=O)N2CCC[C@@H]2C(N)=O)C(C)C)NC(=O)[C@H](Cc2c[nH]c3ccccc23)NC(=O)[C@H](CCCN=C(N)N)NC(=O)[C@@H](Cc2ccc3ccccc3c2)NC(=O)[C@@H]2CCCN2C1=O` has a Tmax of 54 ± 18 min (Beagle dog, both sexes, plasma; subcutaneous, once daily, 0.75 mg/kg, day 1).
With `CCCC[C@H](NC(=O)CNC(=O)CNC(=O)CN1CCN(CC(=O)O)CCN(CC(=O)O)CCN(CC(=O)O)CC1)C(=O)N[C@H]1CC(=O)NCCCC[C@@H](C(N)=O)NC(=O)[C@H](Cc2c[nH]c3ccccc23)NC(=O)[C@H](CCCNC(=N)N)NC(=O)[C@@H](Cc2ccccc2)NC(=O)[C@H](Cc2c[nH]cn2)NC1=O` [lead-203 labelled] the urinary excretion was 92.1 ± 2.14% (normal C57 mice, urine; intravenous, 0.056 MBq, 24 h).
For `COc1cc2c(cc1OC)CN(CCCCn1ccc3cc(OCC[18F])ccc31)C2`, the brain/blood ratio was 3.13 (ICR mice, male; intravenous, 15 min).
Under “metabolite peak area”, `COC[C@@H](CC(C)C)NC(=O)c1ccc(CO)c(C)c1` is recorded as 3.6% (LC-MS; human liver microsomes; 10 µM of parent drug, 20 min, pH 7.4, with: NADPH; baseline: parent drug at time zero).
With `O=C(O)C1OC(OC2C(COS(=O)(=O)O)OC(OC3C(C(=O)O)OC(OC4C(COS(=O)(=O)O)OC(OC5C(C(=O)O)OC(OC6C(COS(=O)(=O)O)OC(OC7C(C(=O)O)OC(OC8C(COS(=O)(=O)O)OC(OC9C(C(=O)O)OC(OC%10C(COS(=O)(=O)O)OC(OC%11C(C(=O)O)OC(Oc%12ccc([N+](=O)[O-])cc%12)C(O)C%11O)C(NS(=O)(=O)O)C%10O)C(OS(=O)(=O)O)C9O)C(NS(=O)(=O)O)C8O)C(OS(=O)(=O)O)C7O)C(NS(=O)(=O)O)C6O)C(OS(=O)(=O)O)C5O)C(NS(=O)(=O)O)C4O)C(OS(=O)(=O)O)C3O)C(NS(=O)(=O)O)C2OS(=O)(=O)O)C(O)C(O)C1OC1OC(COS(=O)(=O)O)C(O)C(O)C1NS(=O)(=O)O` (stereo not shown) the haemoglobin was 14.8 ± 0.3 g/dL (rats, blood; intravenous, 3600 µg/kg/day for 7 days, day 8).
The recovery of `O=C(Nc1nccs1)C(c1cc(F)ccc1O)N1Cc2ccccc2C1=O` (stereo not shown) is reported as 107 ± 3.3% (mouse plasma; 6 ng/mL, time not given, -30 °C, 3 freeze-thaw cycles, low QC).
`CC(=O)N[C@H](CC(=O)O)C(=O)N[C@H](Cc1c[nH]c2ccccc12)C(=O)N[C@H](Cc1ccccc1)C(=O)N[C@H](CCCCN)C(=O)N[C@H](C)C(=O)N[C@H](Cc1ccccc1)C(=O)N[C@H](Cc1ccc(O)cc1)C(=O)N[C@H](CC(=O)O)C(=O)N[C@H](CCCCN)C(=O)N[C@@H](C(=O)N[C@H](C)C(=O)N[C@H](CCC(=O)O)C(=O)N[C@H](CCCCN)C(=O)N[C@H](Cc1ccccc1)C(=O)N[C@H](CCCCN)C(=O)N[C@H](CCC(=O)O)C(=O)N[C@H](C)C(=O)N[C@H](Cc1ccccc1)C(N)=O)C(C)C` gave a Cmax of 2.37 ng/mL (statin-treated high-risk CHD men, plasma; oral, 100 mg daily, day 1, 0 to 2 h, mean, undetectable set to 0).
`CCC(=O)N(C)c1ccc(Cl)c(Cl)c1` has a turnover of 14.3% (mouse liver S9 CD1 male cofactor-fortified; 10 µM, 1 h, pH 7.4; baseline: boiled S9).
`COC(=O)/C=C/C(=O)c1ccc(OC)cc1` has a recovery of 101 ± 6.32% (LC-MS/MS; rat plasma; 400 ng/mL, 12 h, room temperature, short-term storage).
For `NS(=O)(=O)c1ccc(-n2nc(C(F)(F)F)cc2-c2ccc(F)cc2F)cc1`, “metabolite formation rate” read 33.7 pmol/min/mg (substrate; human liver microsomes; 20 µM, 0 to 30 min, pH 7.4).
With `CCCC[C@H](NC(=O)[C@H](CC(C)C)N(C)C(=O)CNC(=O)[C@@H](NC(=O)[C@H](Cc1ccccc1)NC(=O)[C@H](CCCCN)NC(=O)[C@@H](N)CC(=O)O)C(C)C)C(N)=O` the AUC(0-t) was 28 ng·h/mL (Göttingen minipig, plasma; subcutaneous, 100 µg/kg).
The intact complex of `O=C([O-])CN1CCN(CC(=O)[O-])CCN(CC(=O)NCC2CCC(C(=O)NC(Cc3ccc4ccccc4c3)C(=O)NCCCCC(NC(=O)NC(CCC(=O)O)C(=O)O)C(=O)O)CC2)CCN(CC(=O)[O-])CC1.[44Sc+3]` (stereo not shown) is reported as 96.7 ± 1.2% (transchelation stability; 0.5 h, 37 °C, with: DTPA 10 mM).
`OCc1cn(Cc2ccc(-c3noc(-c4ccc(OCC[18F])c(C(F)(F)F)c4)n3)cc2)nn1` gave a tissue uptake of 0.62 ± 0.1 %ID/g (female Lewis rat, fat; intravenous, 30 min).
Under “fraction in filtrate”, `Polymyxin B` is recorded as 7% (ultrafiltration ELISA; human citrate plasma; 1 µg/mL, 30 kDa MMCO filter; baseline: positive control).
For `Cc1ccccc1-c1cc(N2CCNCC2)ncc1N(C)C(=O)C(C)(C)c1cc(C(F)(F)F)cc(C(F)(F)F)c1`, “time to terminal elimination phase” read 72 h (human, plasma; dose not given).
`O=c1nc(NO)ccn1[C@@H]1O[C@H](CO)[C@@H](O)[C@H]1O` has a mRNA level of 3.3 fold (RT-PCR, measured: CYP3A18; rat, arthritis model, liver; oral, 80 mg/kg twice daily, 5 days; baseline: untreated arthritic rats).
The measured concentration of `Oc1ccc2ccccc2c1/N=N/c1ccccc1` is reported as 0.216 µg/L (extracted rat blood QC samples; 0.2 µg/L, 12 h, room temperature, short-term stability).
For `COCCOCCOCCOCCOCCOCCOCCOCCOCCOCCOCCOCCOCCOCCOCCOCCOCCOCCOCCOCCOCCOCCNC(=O)CCC1(Cc2ccccc2)c2ccccc2-c2ccc(-c3sc(-c4c5c(c(-c6sc(-c7ccc8c(c7)C(CCC(=O)NCCOCCOCCOCCOCCOCCOCCOCCOCCOCCOCCOCCOCCOCCOCCOCCOCCOCCOCCOCCOCCOCCOC)(Cc7ccccc7)c7ccccc7-8)c7c6OCCO7)c6nsnc46)N=S=N5)c4c3OCCO4)cc21` (stereo not shown), “intestine to liver ratio” read ~5 (ex vivo fluorescence imaging; KM mouse, female; iv, 15 mg/kg, 6 h).
Under “fraction excreted unchanged”, `CC(C)(Sc1cc[n+]([O-])cc1-c1ccc(C#N)c2ccccc12)C(=O)OC1OC(C(=O)O)C(O)C(O)C1O` (stereo not shown) is recorded as ~33% (urine; oral, 15 mg, severe renal impairment; baseline: normal renal function).
The NOAEL of `NCCCC[C@H](NC(=O)[C@@H]1CCCN1C(=O)[C@@H]1CSSC[C@H](NC(=O)CNC(=O)CNC(=O)CN)C(=O)N[C@@H](Cc2ccc(O)cc2)C(=O)N[C@@H](Cc2ccccc2)C(=O)N[C@@H](CCC(N)=O)C(=O)N[C@@H](CC(N)=O)C(=O)N1)C(=O)NCC(N)=O` is reported as 0.05 mg/kg (male Sprague Dawley rats; iv, single dose).
